Assay results from different studies.
Numbered parts are unrelated; each lists some results of a single study. Changes are numbered by the printed parent chain.

Study 1 — technique: protein-binding microarray; form: double-stranded DNA, one strand shown; matrix: in vitro; tested at: 0.8 µM; setting: whole 60-bp probe, no competitor; direction: higher = stronger binding; measurement: fluorescence intensity; constant ends, left off below: … GTCTTGATTCGCTTGACGCTGCTG
Target: Centromere-binding protein 1, full length, N-terminal tag (CBF1, Saccharomyces cerevisiae, UniProt P17106, residues 1-351)
UniProt P17106, sequence (whole entry, looked up): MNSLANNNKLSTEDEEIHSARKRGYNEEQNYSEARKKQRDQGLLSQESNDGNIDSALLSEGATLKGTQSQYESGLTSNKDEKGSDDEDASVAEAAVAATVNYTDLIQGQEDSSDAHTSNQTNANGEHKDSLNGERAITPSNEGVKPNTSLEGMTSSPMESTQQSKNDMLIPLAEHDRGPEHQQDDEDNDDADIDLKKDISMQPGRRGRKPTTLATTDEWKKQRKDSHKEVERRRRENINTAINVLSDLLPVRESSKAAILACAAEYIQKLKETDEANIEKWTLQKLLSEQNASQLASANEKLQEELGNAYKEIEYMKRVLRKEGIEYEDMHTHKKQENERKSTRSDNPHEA
GAACGTATGACAAAGAGCACCACGATGGTGATCTAG: 524 a.u.
CTATGTAATAAAAATGACACCACGTTATCAGGGTTC: 927 a.u.
GAAAATACCCGGCATCACGCATTTATTATATGATAG: 629 a.u.
GAACTTCTTGCTCATCACGATAATTATACTATTTAG: 551 a.u.
GAAAGCACGTGACCCACGCTTGGCCCGCTATGATAG: 24100 a.u.
GAATTCCTGTTTTTTGACGTGATATACTCAAAGTAG: 602 a.u.
GAAACTTCTGGTAAACACCTGATGCGATTCTAATAG: 977 a.u.
CTATGAGTCGCACCCCACATGGATATCGTACTATTC: 509 a.u.
CTATGTACAGGGCCGCACATGATCACTATAACATTC: 2340 a.u.
CTAGTAACTACCAATCTCGTGAGATTTTTCATATTC: 578 a.u.
GAATCATATAATAAGCACGCACGAGATGTCCTCTAG: 802 a.u.
CTAACTATTAAACGTGACGGTGCTGCTGAGATCTTC: 1340 a.u.

Study 2 — target: CCNB3, cyclin fold, Cln2 fusion (human); technique: yeast growth competition, sequencing; matrix: yeast; setting: weak parent motif; baseline: not given; direction: higher = stronger binding; measurement: normalised enrichment score
Starting sequence: GMNC docking peptide (human); KNAKRNLSSEFAN; partner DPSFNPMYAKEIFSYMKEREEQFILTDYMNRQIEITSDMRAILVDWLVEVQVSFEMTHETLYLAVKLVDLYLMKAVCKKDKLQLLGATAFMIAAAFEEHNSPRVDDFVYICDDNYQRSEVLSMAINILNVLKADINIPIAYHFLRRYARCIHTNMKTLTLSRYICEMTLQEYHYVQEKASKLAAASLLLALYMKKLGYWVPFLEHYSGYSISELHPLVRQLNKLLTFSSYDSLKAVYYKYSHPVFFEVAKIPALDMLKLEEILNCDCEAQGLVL
KNAKRNLSMEFAN [S9M]: 0.309
KNAKRNHSSEFAN [L7H]: 0.228
KNAKRNLTSEFAN [S8T]: -0.174
KNAKRNLSSEFPN [A12P]: 0.167
KNAKRNSSSEFAN [L7S]: 0.321
KNADRNLSSEFAN [K4D]: -0.153
KNAKRNMSSEFAN [L7M]: 0.2
KNAKHNLSSEFAN [R5H]: 0.125
KNAKRNLPSEFAN [S8P]: 0.0837
KNAKRGLSSEFAN [N6G]: 0.365
KNAKRNLSCEFAN [S9C]: 0.476
KNAKRNLSSMFAN [E10M]: 0.565
KQAKRNLSSEFAN [N2Q]: 0.275
KNAKRNYSSEFAN [L7Y]: 0.18

Study 3 — technique: RNA Bind-n-Seq; form: RNA; matrix: in vitro; tested at: not given; baseline: input RNA pool; direction: higher = stronger binding; measurement: bound/input enrichment
Target: RING finger protein unkempt homolog, zinc fingers 1-6, GST-SBP tag (UNK, Homo sapiens, UniProt Q9C0B0, residues 30-357)
UniProt Q9C0B0, sequence (30-357, looked up): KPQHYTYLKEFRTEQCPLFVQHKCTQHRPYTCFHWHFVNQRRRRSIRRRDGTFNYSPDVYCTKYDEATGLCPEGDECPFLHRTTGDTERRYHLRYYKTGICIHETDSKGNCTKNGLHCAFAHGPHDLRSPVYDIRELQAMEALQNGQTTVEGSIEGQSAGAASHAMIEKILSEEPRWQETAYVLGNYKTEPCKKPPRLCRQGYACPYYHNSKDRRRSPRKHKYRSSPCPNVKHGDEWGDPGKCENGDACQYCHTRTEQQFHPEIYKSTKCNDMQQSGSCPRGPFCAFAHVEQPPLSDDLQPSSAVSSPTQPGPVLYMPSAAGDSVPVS
Setting: RNA with constant flanks, human and mouse sites, ends assumed
Constant ends, left off below: GGGAGUUCUACAGUCCGACGAUC … CAACAGAGGAUUGAGCAUCA
GCUAAUCAAGAGCCAGGUAUUUUACAACAAAAAAAUGCAGUUCAGAUUAUUAGUUCUGCUUUAGAUACUGAUAAUGAAUCUACAAAAGAUACAGAAAAUACUUUUGUCCUAGGAGAUGUU: 3.93 ratio
GUCCCGCCCACCCUCCUUUUCCCUGCACCCUGAGAUCCUGUCUGAGGAGGAAGCUACCCAGAUGGAUCAGUUUGGGCAGGCAGCAGGGGGCCUCAUUCACAGCAUUCGGGAGAUAGCACA: 0.339 ratio
UUUUUUUUUUUUUGGAUACAUCUUAACAUAUAAAAAUUAAGUUUUUGCCAUUCAACAUAGUAGUAUCAUAUGGCCUGGAUAUAUUUGAAUGUGUAUGAAGUAAAGUUGCUUGAGAACAGG: 2.24 ratio
UAUAAAUUUGUAAAUCUUAAUUCAAAGAUAACUUUUGUGUGGGUAUUGAGUUUGGAUCGGUUUUUUGUCUUGGUGUGGGCUGUGUGGCUUUUGGGAGGGGAUGUGUGUGAGAGAGGUGAG: 1.12 ratio
CCAAUUACGGGGCCUGAGUAUGCAACCCCAAUCAUCAUGGACAUGUCAGGGCACCCCACAACUUCAGUUGGUCAGCCCUCCACAUCCACUUUCAAGGCUACGGGGAACCAACCUCCCCCA: 0.116 ratio
GAGAGCCGCCUGUCUUGGUUAGAUGGCUCUGGAUUAGGAUUCUCACUGGAAUACCCCACCAUUAGUUUACAUGCAUUAUCCAGGGACCGAAGUGACUGUCUAGGAGAGCAUUUGUAUGUU: 7.98 ratio

Further values, each from its own experiment
PhoQ, residues 284 288 289 292 302 303 TTCLQL — fold induction (PhoP, residues 12 14 15 18 19 LHSVQ (Escherichia coli, UniProt P23836); Sort-seq, refers to: YFP reporter; E. coli; PhoQ-PhoP variant library, added: 10 µM Mg2+; baseline: high Mg2+ state, higher = stronger signaling): 2.54

Some of these lines once more (study 2):
KNAKRNMSSEFAN [L7M]: 0.2
KNAKHNLSSEFAN [R5H]: 0.125
KNAKRNLPSEFAN [S8P]: 0.0837
KNAKRGLSSEFAN [N6G]: 0.365
